Measured values from different studies.
Each line is one published result; not all experiments were run side by side. ± marks the error that the study gave.

SMILES | test | system | setting | how to read | measurement | result
O=C(/C=C/c1cc(F)cc(F)c1)c1ccc[nH]1 |  | zebrafish embryo (wild type) | up to 72 hpf, exposed from 5 hpf |  | LC50 | 12.1 µM
CC[C@H](C)[C@H](NC(=O)[C@H](CO)NC(=O)[C@H](C)NC(=O)[C@@H](NC(=O)CNC(=O)[C@H](CO)NC(=O)[C@@H](NC(=O)[C@@H](NC(=O)[C@H](Cc1c[nH]cn1)NC(=O)[C@@H]1CCCN1C(=O)[C@@H](NC(=O)[C@H](CC(C)C)NC(=O)[C@H](CO)NC(=O)[C@H](CC(C)C)NC(=O)[C@@H](N)Cc1ccccc1)[C@@H](C)CC)[C@@H](C)CC)C(C)C)C(C)C)C(=O)N[C@@H](C)C(=O)N[C@@H](CCCCN)C(=O)N[C@@H](Cc1c[nH]cn1)C(=O)N[C@@H](Cc1ccccc1)C(N)=O | UPLC-MS/MS | processed rat plasma in autosampler | 0.2 µg/mL, 8 h, 25 °C, post-preparative stability |  | concentration found | 183 ng/mL
O=C1Cc2cc(CCN3CCN(c4nsc5ccccc45)CC3)c(Cl)cc2N1 |  | human liver mitochondrial preparation | 1 µM, 30 min, 0.5 mg/mL protein |  | percent metabolized | 0%
CC[C@H](C)[C@H](NC(=O)[C@H](CC(C)C)NC(=O)[C@H](Cc1c[nH]c2ccccc12)NC(=O)[C@H](CCC(N)=O)NC(=O)[C@@H](NC(=O)[C@H](Cc1ccccc1)NC(=O)[C@H](C)NC(=O)[C@H](CCCCNC(=O)COCCOCCNC(=O)COCCOCCNC(=O)CC[C@H](NC(=O)CCCCCCCCCCCCCCCCCCC(=O)O)C(=O)O)NC(=O)[C@H](CCC(N)=O)NC(=O)[C@H](C)NC(=O)[C@@H](NC(=O)[C@H](CCCCN)NC(=O)[C@H](CC(=O)O)NC(=O)[C@H](CC(C)C)NC(=O)C(C)(C)NC(=O)[C@@H](NC(=O)[C@H](CO)NC(=O)[C@H](Cc1ccc(O)cc1)NC(=O)[C@H](CC(=O)O)NC(=O)[C@H](CO)NC(=O)[C@@H](NC(=O)[C@H](Cc1ccccc1)NC(=O)[C@@H](NC(=O)CNC(=O)[C@H](CCC(=O)O)NC(=O)C(C)(C)NC(=O)[C@@H](N)Cc1ccc(O)cc1)[C@@H](C)O)[C@@H](C)O)[C@@H](C)CC)[C@@H](C)CC)C(C)C)C(=O)N[C@@H](C)C(=O)NCC(=O)NCC(=O)N1CCC[C@H]1C(=O)N[C@@H](CO)C(=O)N[C@@H](CO)C(=O)NCC(=O)N[C@@H](C)C(=O)N1CCC[C@H]1C(=O)N1CCC[C@H]1C(=O)N1CCC[C@H]1C(=O)N[C@@H](CO)C(N)=O |  | human, moderate renal impairment, plasma | subcutaneous, 5 mg single dose, geometric mean |  | CL/F | 0.802 mL/min
CC[C@H](C)[C@H](NC(=O)[C@@H](N)CCCNC(=N)N)C(=O)N[C@H](C(=O)N1CCC[C@H]1C(=O)N[C@@H](C)C(N)=O)C(C)C |  | human, plasma | intravenous, 8 mg/kg, single dose, healthy volunteers |  | AUC(0-t) | 2420 ng·h/mL
Cc1c(P(=S)(c2ccccc2)c2ccccc2)n2ccccc2[n+]1C/C=C/c1ccccc1 |  | mouse, brain | intraperitoneal, 10 mg/kg, 4 h |  | concentration | 24 ng/g
c1cc2ccc3cccc4ccc(c1)c2c34 |  | male Wistar rats, cecum | oral, 4 mg/kg, 24 h |  | concentration | 51.2 ± 12.3 ng/g
CC(C)C(=O)OC[C@H]1O[C@@H](n2ccc(NO)nc2=O)[C@H](O)[C@@H]1O |  | rat brain dialysate | 5 ng/mL, time not given, three freeze-thaw cycles, with: NHC 25 ng/mL |  | remaining compound | 99.8 ± 1.63%
CCCCCCCCCC[N+](C)(C)Cc1ccccc1 | ultrafiltration | human serum |  |  | unbound fraction in blood | 0.05
COc1ccc(C[C@@H]2NC(=O)[C@H]([C@@H](C)O)NC(=O)[C@@H]3[C@@H]4CCN3C(=O)[C@@H]3Cc5cn(c6ccc(F)cc56)CCCCCCN(Cc5ccc(cc5)CCNC(=O)[C@]5(C)CCCN5C2=O)C(=O)CCC(=O)N[C@@H](C)C(=O)N[C@H](CNC(=O)CCCCC[N+](C)(C)C)C(=O)N[C@@H](Cc2cccc(c2)CNC(=O)CO4)C(=O)N3)cc1 |  | fasted healthy men, plasma | oral, 35 mg single dose, 24 h, with 1800 mg Labrasol, median |  | plasma concentration | 6.98 nM
Oc1ccc2ccc3cccc4ccc1c2c34 | HPLC-fluorescence | Wistar rat, male, jejunum | oral, 4 mg/kg PY, 24 h |  | tissue concentration | 1300 ± 200 ng/g
CCOc1cc(Oc2ccc(C(F)(F)F)cc2Cl)ccc1[N+](=O)[O-] |  | Sprague-Dawley rat, male, thyroid gland | oral, 3.25 to 62.5 mg/kg daily, 8 days |  | tissue concentration | 250 to 5300 ng/g
CC(C)C[C@@H]1NC(=O)[C@@H]2CSSC[C@@H](C(=O)NCC(N)=O)NC(=O)[C@H](Cc3ccccc3)NC(=O)CNC(=O)[C@H](CC(N)=O)NC(=O)[C@@H]3CCCN3C(=O)CNC(=O)[C@@H]3CSSC[C@H](NC(=O)[C@H](CO)NC(=O)[C@H]([C@@H](C)O)NC(=O)[C@@H]4CCCN4C(=O)[C@H](C)NC(=O)[C@H](Cc4c[nH]c5ccccc45)NC(=O)[C@H](CC(=O)O)NC(=O)CNC(=O)[C@H](CCCNC(=N)N)NC(=O)CNC(=O)[C@H](CCC(N)=O)NC(=O)[C@@H]4CCCN4C(=O)[C@@H](NC(=O)CNC(=O)c4ccc(F)cc4)CSSC[C@H](NC(=O)CNC(=O)[C@H](C)NC1=O)C(=O)N[C@@H](C(C)C)C(=O)N3)C(=O)N[C@@H](CO)C(=O)N[C@@H](CCC(N)=O)C(=O)N[C@@H](CC(=O)O)C(=O)N[C@@H](CO)C(=O)N[C@@H](CC(=O)O)C(=O)N2 [fluorine-18 labelled] | static microPET | nude mouse, U-87 MG xenograft, tumour | intravenous, 0.5 h, with: c(RGDyK) 330 µg co-injected |  | tumour uptake | 0.61 ± 0.14 %ID/g
CN[C@@](C)(C[18F])C(=O)O |  | SCID mouse U87 xenograft, brain | 15 min, post injection |  | tissue uptake | 0.6 ± 0.2 %ID/g
CNC(=O)c1ccc(-c2cnn3ccc(C(=O)N(C)c4ccc(Cl)c(C(=O)OC)c4)cc23)cc1 |  | beagle dogs, both sexes, plasma | oral, 250 mg/kg/day, day 1, 2-week toxicology study |  | AUC(0-8 h) | 207 ng·h/mL
C#Cc1cccc2c1[nH]c1cnc(C(=O)OC(C)(C)C)cc12 |  | Wistar rat, brain | intraperitoneal, 10 mg/kg single dose on day 4, 20 min after dose, vehicle for 3 days before |  | brain concentration | 91.4 ± 29.4 nM

SMILES | test | system | setting | how to read | measurement | result
O=C1Nc2ccc(Cl)cc2[C@@](C#CC2CC2)(C(F)(F)F)O1 |  | RT-SHIV infected rhesus macaques, brain | dose not given | relative to: uninfected macaques | brain concentration decrease | 86%
O=c1[nH]c(Cc2ccccn2)nc2c1cnn2C1CCOCC1 |  | healthy men, extensive metabolizers, plasma | oral, 25 mg single dose, tablet, geometric mean |  | Cmax | 300 nM
CC(=O)N[C@H](CCCCNC(=O)C(C)F)C(=O)N[C@@H](CS)C(=O)N[C@@H](CS)C(=O)N[C@@H](CCC(=O)O)C(=O)N[C@@H](Cc1c[nH]cn1)C(=O)N[C@H](Cc1ccccc1)C(=O)N[C@@H](CCCNC(=N)N)C(=O)N[C@@H](Cc1c[nH]c2ccccc12)C(=O)N[C@@H](CS)C(=O)N[C@@H](CCCNC(=N)N)C(=O)N1CCC[C@H]1C(=O)N[C@H](C(N)=O)C(C)C (stereo partly shown) [fluorine-18 labelled] |  | C57BL/6 mice, male, B16-F10 tumour, spleen | intravenous, 1 h |  | tissue uptake | 0.61 ± 0.05 %ID/g
CC(=O)N[C@@H](Cc1c[nH]c2ccccc12)C(=O)N[C@@H](CC(N)=O)C(=O)N1CCC[C@H]1C(=O)N[C@@H](C)C(=O)N[C@H](C(=O)NCC(=O)N[C@@H](CCCCN)C(=O)N[C@@H](Cc1c[nH]c2ccccc12)C(=O)N[C@H](C(=O)NCC(N)=O)[C@@H](C)O)[C@@H](C)O | circular dichroism | phosphate buffer | pH 6.5 |  | Tm | < 0 °C
Cc1ccc(OS(=O)(=O)O)cc1 |  | human hemodialysis patients, plasma | pre-treatment | relative to: hemodialysis over normal subjects | total plasma concentration ratio | 11
[123I]c1cncc(OC[C@@H]2CCN2)c1 | SPECT | human, low plasma nicotine, thalamus | intravenous, dose not given | relative to: plasma | tissue/plasma ratio | 42.2
CC(C)[C@H](NC(=O)CNC(=O)[C@H](CCCCN)NC(=O)[C@@H]1CCCN1C(=O)[C@H](CC(=O)O)NC(=O)CNC(=O)[C@H](CCCCN)NC(=O)[C@@H]1CCCN1C(=O)[C@H](CC(=O)O)NC(=O)c1ccc2c(c1)C(=O)OC21c2ccc(O)cc2Oc2cc(O)ccc21)C(=O)N[C@H](C(=O)N[C@H](C(=O)N[C@H](C(=O)N[C@H](C(=O)N[C@H](C(=O)N[C@H](C(=O)N[C@H](C(=O)N[C@H](C(=O)N[C@H](C(=O)NCC(=O)N[C@@H](CCCCN)C(=O)NCC(=O)N[C@@H](CC(=O)O)C(=O)N1CCC[C@H]1C(=O)N[C@@H](CCCCN)C(=O)N1CCC[C@H]1C(=O)N[C@@H](CC(=O)O)C(=O)O)[C@@H](C)O)C(C)C)[C@@H](C)O)C(C)C)[C@@H](C)O)C(C)C)[C@@H](C)O)C(C)C)[C@@H](C)O | no effect | Sprague-Dawley rat, excised skin | 50 µmol/L, 37 °C, FAM-labelled CPP conjugate | relative to: free FAM | apparent skin permeability | no effect
CC[C@H](C)[C@H](NC(=O)[C@H](CCCCN)NC(=O)[C@H](CCCCN)NC(=O)[C@H](C)NC(=O)[C@@H](NC(=O)[C@H](CCCCN)NC(=O)[C@H](C)NC(=O)[C@H](C)NC(=O)[C@@H](NC(=O)CNC(=O)[C@H](C)NC(=O)[C@@H](NC(=O)[C@H](CCCCN)NC(=O)[C@@H]1CCCN1C(=O)[C@H](Cc1ccccc1)NC(=O)[C@@H](N)Cc1ccccc1)C(C)C)C(C)C)C(C)C)C(=O)N[C@@H](Cc1ccccc1)C(=O)N[C@H]1CSSC[C@@H](C(=O)O)NC(=O)[C@H](CCCCN)NC(=O)[C@H](CCCCN)NC(=O)[C@H](CO)NC(=O)[C@H]([C@@H](C)CC)NC(=O)[C@H]([C@@H](C)O)NC1=O | haemolysis | horse erythrocytes | 2 h, 37 °C |  | HC50 | 41.3 µM
CC[C@H](C)[C@H](NC(=O)[C@H](Cc1c[nH]c2ccccc12)NC(=O)[C@@H]1CSSC[C@H](NC(=O)[C@H](CCC(=O)O)NC(=O)[C@H](Cc2c[nH]c3ccccc23)NC(=O)[C@H](CCC(N)=O)NC(=O)COCCOCCNC(=O)[C@H](CCC(=O)O)NC(=O)[C@H](Cc2c[nH]cn2)NC(=O)[C@@H](N)Cc2c[nH]cn2)C(=O)N2CCC[C@H]2C(=O)N[C@@H](Cc2ccc(O)cc2)C(=O)NCC(=O)N[C@@H](CC(C)C)C(=O)N1)C(=O)N[C@@H](CCC(N)=O)C(=O)O [technetium-99m labelled] |  | male C57BL/6 mouse, blood | intravenous |  | distribution half-life | 8.6 ± 1.9 min
O[C@H]1CCCN[C@@H]1CCCn1cnc2c(Cl)c(Cl)ccc21 |  | monkey | multiple-dose up to 28 days |  | NOAEL | 80 mg/kg/day
Oc1cc(Cl)c(Cl)c(-c2cc(Cl)c(Cl)cc2Cl)c1Cl | enantioselective GC, measured: hydroxylated metabolite | phenobarbital-treated rat, rat liver microsomes | 50 µM, 30 min |  | enantiomeric fraction | 0.65
N[C@@H](Cc1ccc(F)cc1)C(=O)O | in situ brain perfusion | CF-1 mice, wild type | 1 µM, 60-180 s |  | brain uptake clearance Kin | 127 mL/100 g/min
CSCC[C@@H]1NC(=O)[C@H](CC(=O)O)NC(=O)CNC(=O)[C@H](CCCNC(=N)N)NC(=O)[C@H](C)NC(=O)[C@H](CCC(=O)O)NC(=O)[C@H](CCCNC(=N)N)NC(=O)[C@@H]2CSSC[C@@H]3NC(=O)[C@H](CO)NC(=O)[C@H]([C@@H](C)O)NC(=O)[C@@H]4CCCN4C(=O)[C@H](C)NC(=O)[C@H](Cc4c[nH]c5ccccc45)NC(=O)[C@H](CC(=O)O)NC(=O)CNC(=O)[C@H](CCCNC(=N)N)NC(=O)CNC(=O)[C@H](CCC(N)=O)NC(=O)[C@@H]4CCCN4C(=O)[C@@H](NC(=O)CNC(=O)C(C)F)CSSC[C@H](NC(=O)CNC(=O)[C@H](C)NC(=O)[C@H](CC(C)C)NC(=O)[C@H](CSSC[C@@H](C(=O)NCC(N)=O)NC(=O)[C@H]([C@@H](C)O)NC(=O)[C@H](CCCNC(=N)N)NC(=O)[C@@H]4CCCN4C1=O)NC(=O)[C@H](CC(=O)O)NC(=O)[C@H](CO)NC(=O)[C@H](CC(=O)O)NC(=O)[C@H](CCC(N)=O)NC(=O)[C@H](CO)NC3=O)C(=O)N[C@@H](C(C)C)C(=O)N2 (stereo partly shown) [fluorine-18 labelled] |  | nude mice U-87 MG xenograft, kidneys | intravenous, 0.5 h |  | tissue uptake | 6.98 ± 1.61 %ID/g
CC[C@@]1(O)C(=O)OCc2c1cc1n(c2=O)Cc2cc3c(CN(C)C)c(O)ccc3nc2-1 |  | human patients, plasma | oral, 2.5 mg daily for 5 days, MTD arm, daily dosing, with: pazopanib | relative to: with pazopanib over alone | half-life ratio | 0.83
CCNc1nc(Cl)nc(NC(C)C)n1 | LC-MS/MS | herbicide solution | 2 h, 4 °C, with: 254 nm UV exposure |  | remaining amount | 34.9 ± 6.06%

Excerpt of the above:
SMILES | test | system | setting | how to read | measurement | result
C#Cc1cccc2c1[nH]c1cnc(C(=O)OC(C)(C)C)cc12 |  | Wistar rat, brain | intraperitoneal, 10 mg/kg single dose on day 4, 20 min after dose, vehicle for 3 days before |  | brain concentration | 91.4 ± 29.4 nM
Oc1cc(Cl)c(Cl)c(-c2cc(Cl)c(Cl)cc2Cl)c1Cl | enantioselective GC, measured: hydroxylated metabolite | phenobarbital-treated rat, rat liver microsomes | 50 µM, 30 min |  | enantiomeric fraction | 0.65
